Results from different studies.
Numbered parts are unrelated; each lists some results of a single study. Substitutions count along the parent as printed.

Study 1 — technique: protein binding microarray; form: double-stranded DNA, one strand shown; matrix: in vitro; tested at: not given; relative to: not given; reading: higher = stronger binding
Target: Histone acetyltransferase KAT6A, winged helix 1, GST fusion (KAT6A, Homo sapiens, UniProt Q92794, residues 1-85)
Setting: 8-mer, flanks averaged, mean of 2 arrays, mostly near background
Residues (chain): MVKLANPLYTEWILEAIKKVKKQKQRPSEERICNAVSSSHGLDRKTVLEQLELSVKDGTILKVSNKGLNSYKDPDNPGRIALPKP
With `CTTTTATC` the E-score was -0.137.
For `GCGACTCA`, the E-score was 0.112.
For `ACTGAGCG`, the E-score was 0.162.
For `TCGGTAAA`, the E-score was 0.00637.

Study 2 — technique: competition protein-binding microarray; form: double-stranded DNA, one strand shown; matrix: in vitro; tested at: 2 µM; added: Cbf1 competitor, 0.05 µM; reading: higher = stronger binding
Target: Phosphate system positive regulatory protein PHO4, full length, GST-tagged (PHO4, Saccharomyces cerevisiae, UniProt P07270, residues 1-312)
Setting: whole 60-bp probe, lowest competitor level
Construct (chain): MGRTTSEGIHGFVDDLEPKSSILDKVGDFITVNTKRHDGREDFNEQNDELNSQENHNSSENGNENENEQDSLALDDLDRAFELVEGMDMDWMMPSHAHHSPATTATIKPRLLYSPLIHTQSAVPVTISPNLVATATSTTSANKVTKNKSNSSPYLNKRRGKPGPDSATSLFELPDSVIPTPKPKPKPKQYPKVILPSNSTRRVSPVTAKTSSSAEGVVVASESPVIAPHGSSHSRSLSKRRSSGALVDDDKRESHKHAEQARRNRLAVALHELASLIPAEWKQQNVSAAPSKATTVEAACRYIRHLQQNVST
The fluorescence intensity of `ATACTTTTATCGGCCCATGTGTGCCTAGTCAGCTCGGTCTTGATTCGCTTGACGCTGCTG` is reported as 7900 a.u.
With `CCTGGCCAAGGGCTTCACGTGTAATCTCATTTAATTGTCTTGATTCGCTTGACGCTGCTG` the fluorescence intensity was 12800 a.u.
`AAAGCGGTAATTTGAAAGGTGGGTGCAGATATCTATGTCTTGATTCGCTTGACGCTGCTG` has a fluorescence intensity of 4270 a.u.
`AGTTCTCGGACTTTTGACGTGCCAGTGCAATTATCCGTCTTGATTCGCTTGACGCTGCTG` has a fluorescence intensity of 4890 a.u.
`AGGACAAGTTGTAGTCACCTGGCAAACCGAAAACGGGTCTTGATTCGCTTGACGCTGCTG` has a fluorescence intensity of 4290 a.u.
`CGGGGTTAAGTTTGTAATGTGGGTGGCTTGCAGCAGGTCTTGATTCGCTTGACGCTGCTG` gave a fluorescence intensity of 5330 a.u.
`GCATATGCCTTCTGGCACGTGTCCATCTGCATACTAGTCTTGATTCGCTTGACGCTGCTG` has a fluorescence intensity of 19300 a.u.
The fluorescence intensity of `GTCTTGTCTCATTGTTACGTGGGTGTCCCCACTTCAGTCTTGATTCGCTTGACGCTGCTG` is reported as 6500 a.u.

Study 3 — target: CCNE2, cyclin fold, Cln2 fusion (human); technique: yeast growth competition, sequencing; matrix: yeast; setting: weak parent motif; relative to: not given; reading: higher = stronger binding
Parent: CDC6 docking peptide (human); TLKGRRLVFDNQL
For `TLKVRRLVFDNQL [G4V]`, “normalised enrichment score” read 1.19.
Under “normalised enrichment score”, `TLLGRRLVFDNQL [K3L]` is recorded as 0.816.
`TLKGRRLVFDNGL [Q12G]`: “normalised enrichment score” 1.42.
`TLKERRLVFDNQL [G4E]`: “normalised enrichment score” -0.119.

Single results of other studies
For `PhoQ, residues 284 288 289 292 302 303 TASMAF`, the fold induction was 11.7 (PhoP, residues 12 14 15 18 19 LHSVW (Escherichia coli, UniProt P23836); Sort-seq, item: YFP reporter; E. coli; PhoQ-PhoP variant library, added: 10 µM Mg2+; relative to: high Mg2+ state, higher = stronger signaling).

A few entries again (study 3):
For `TLKVRRLVFDNQL [G4V]`, “normalised enrichment score” read 1.19.
Under “normalised enrichment score”, `TLLGRRLVFDNQL [K3L]` is recorded as 0.816.
